Measured values from different studies.
Lines come from different studies, so protocols differ. ± marks the error that the study gave. Values after ≈ are worked out from the molar mass of the structure shown.

C1=C/COCc2cc(ccc2OCCN2CCCC2)Nc2nccc(n2)-c2cccc(c2)COC/1
stability relative error (rat plasma; 2 ng/mL, three freeze-thaw cycles; relative to: nominal concentration): 3.17%

c1ccc(C2CCN(c3nc(-c4ccn[nH]4)nc4ccccc34)C2)nc1 (stereo not drawn)
kinetic solubility (Japanese Pharmacopoeia disintegration test solution 2; pH 6.8): 71 µg/mL (≈ 207 µM)

O=C1NCCc2nc(OCc3cccc(F)c3)ccc21
Irwin test score (refers to: Catalepsy; Sprague-Dawley rat male; oral, 100 mg/kg, 30 min; direction not given): 0

COc1cccc(-c2n[nH]c(SCc3ccccn3)n2)c1OC
plasma concentration (Sprague-Dawley rats, both sexes; oral dietary, 10 mg/kg/day, day 7, 12 h): 248 ng/mL

CCN(CC)Cc1ccc2cc(COC(=O)Nc3ccc(C(=O)NO)cc3)ccc2c1
stability relative error (rat plasma; 5 ng/mL, 21 days, -80 °C; relative to: nominal concentration): 102%

CCOc1nc2cccc(C(=O)O)c2n1Cc1ccc(-c2ccccc2-c2nnn[nH]2)cc1
thermodynamic solubility (shake-flask; Cremophor ELP; 37 °C, water up to 0.5% w/w): 4.93 ± 0.31 mg/g

CC(C)(C(=O)N1CCOc2c(C#N)cncc2C1)C(F)F
subjects with TEAE (refers to: skin irritation; healthy humans, both sexes; oral, 20 mg single dose): 0%

C[C@H]1O[C@@H](O[C@H]2[C@@H](O)C[C@H](O[C@H]3[C@@H](O)C[C@H](O[C@H]4CC[C@@]5(C)[C@H](CC[C@@H]6[C@@H]5C[C@@H](O)[C@]5(C)[C@@H](C7=CC(=O)OC7)CC[C@]65O)C4)O[C@@H]3C)O[C@@H]2C)C[C@H](O)[C@@H]1O
participants with TEAE (refers to: Diarrhea; human; oral, 0.25 mg): 0%

Cn1cc(Nc2nccc(-c3ccc4c(c3)CN(C3COC3)CC[C@H]4NC(=O)c3cn(C(C)(C)C)nn3)n2)cn1
CD4+ T cell count change (human, whole blood; 150 mg twice daily, day 7; relative to: pre-dose baseline): -2.98%

C[C@@H](c1ccc2nccn2c1)n1nnc2ncc(-c3cnn(C)c3)nc21
incidence of treatment-related AEs (refers to: drug hypersensitivity; EGFR-mutant MET-altered NSCLC patients; oral, dose not given, AE grade ≥3, all): 1%

Cc1nn(CC(F)(F)F)cc1Nc1ncc(C2CC2)c(NCc2ccc(S(N)(=O)=O)cc2)n1
PAMPA permeability (PAMPA; PBS; 5 h, pH 7.4): not detected

Cc1c(-c2ccc(N3CCc4cccc(C(=O)Nc5nc6ccccc6s5)c4C3)nc2C(=O)O)cnn1CC12CC3(C)CC(C)(C1)CC(OCCNCC[C@H](O)CO)(C3)C2
mean arterial pressure change (beagle dog, male, anaesthetised; intravenous infusion, 0.01 mg/kg/min, 60 min; relative to: baseline): -1 mmHg

Nc1ncnc2c1ncn2[C@H]1C[C@@H]2OP(=O)(O)OC[C@H]3O[C@@H](n4cnc5c(N)ncnc54)C[C@@H]3OP(=O)(O)OC[C@H]2O1
haematocrit (non-tumor-bearing mice, blood; intravenous, 1 mg/kg, toxicity study): 25.1 ± 1.39%

O=C(O)CCC(=O)O.[2H]C([2H])([2H])Oc1cc(C)c2[nH]ccc2c1CN1CC[C@@H](C2CC2)C[C@H]1c1ccc(C(=O)O)cc1
subjects with dental ulcer TEAE (multiple ascending dose; healthy Chinese subjects; 100 mg twice daily): 12.5%

O=C(Nc1nc2cccc(-c3ccc(CN4CCS(=O)(=O)CC4)cc3)n2n1)C1CC1
treatment-emergent adverse events (refers to: body temperature increased; human rheumatoid arthritis patients; oral, 200 mg once daily, 4 weeks, regardless of relatedness): 0%

CNC(=O)c1ccc(-c2cnc3ncc(Cc4ccc5ncccc5c4)n3n2)cc1F
patients with adverse event (refers to: Dyspnea; cancer patients; oral, 600 mg twice daily, all expansion cohorts, grade 3-4): 0%

COc1ncc(-c2nc3c(n2C(C)C)[C@H](c2ccc(Cl)cc2)N(c2cc(Cl)cn(C)c2=O)C3=O)c(OC)n1
AUC(0-t) geometric mean (human patients, plasma; oral, 250 mg, 0-24 h, high-dose arm, cycle 2 day 1): 22900 ng·h/mL

CCO
AUEC(0-4 h) pulse rate (healthy Chinese men; 0.5 g/kg, with: placebo): 16.7 ± 12.3 h·bpm

OC[C@H]1O[C@@H](c2ccc(F)c(Cc3cc4ccccc4s3)c2)[C@H](O)[C@@H](O)[C@@H]1O
hypoglycaemia-related adverse event (Japanese patients, type 1 diabetes; oral, 25 mg/day, onset day 5; relative to: patients): 2%

N#Cc1ccc2c(c1)[C@H]1CCCN(C(=O)c3ccc4[nH]cnc4c3)[C@H]1C2
mean ACTH level (human; 20 mg, end of trial): 5.8 pmol/L

N#CC1CCCN(c2nc(-c3ccccn3)nc3ccccc23)C1 (stereo not drawn)
kinetic solubility (Japanese Pharmacopoeia disintegration test solution 2; pH 6.8): 77 µg/mL (≈ 244 µM)

Cc1nc(-c2ccc(OCC(C)C)c(C#N)c2)sc1C(=O)O
geometric mean ratio Cmax (human, plasma; oral, 40 mg, with: verinurad 10 mg; relative to: test over reference): 98.9

C[C@H]1C[C@@H](N2C(=N)N[C@](C)(c3cccc(NC(=O)c4cccc(C#N)c4)c3Cl)CC2=O)CCO1
molar extinction coefficient (absorbance maximum 289 nm): 3275 ± 24.6 L/mol/cm

CCCCC[C@H](O)CC[C@@H]1[C@H]2Cc3cccc(OCC(=O)O)c3C[C@H]2C[C@H]1O
geometric mean AUC(0-inf) (LC-MS/MS; Japanese CTD-associated PAH patients, plasma; inhaled, 54 µg): 0.59 ng·h/mL

C=CC(=O)N(C)CCOc1c(N)ncnc1-c1cc(F)cc(NC(=O)c2ccc(C3CC3)cc2F)c1C
AUC (human, whole blood; oral, 100 mg twice daily, day 1): 337 ng·h/mL

CCCCC[C@H]1CC[C@H](c2ccc(OCC)c(F)c2F)CC1
median fetal accumulation (rat, fetus; 5000 ng/mL in perfusate, high dose, mixture of 21 LCMs): 1.65 ng/g

COc1cc2c(cc1OC)C(=O)C(CC1CCN(Cc3ccccc3)CC1)C2 (stereo not drawn)
FEV1 (spirometry; human subjects; dose not given; relative to: placebo): 0.016 L

C[C@@H](Nc1cc(F)cc(F)c1)c1cc(C(=O)N(C)C)cc2c(=O)cc(N3CCOCC3)oc12
patients discontinuing for AE (refers to: Colitis; advanced solid tumour patients; oral, dose not given, dose expansion): 0%

COc1ccnc(C(=O)N[C@@H](CO)C(=O)O[C@@H](C)[C@H](O)[C@@H](Cc2ccccc2)C(=O)O)c1O
storage stability (bovine fat; -18 °C): 3 months

CCc1cc(C(=O)NC)c2nccc(N3CCc4c(cc(Cn5ccnc5)cc4-c4cn(C)nc4C(F)(F)F)C3=O)c2c1
serum MCHC change (Sprague Dawley rats; oral, 100 mg/kg once daily, 7 days; relative to: vehicle): 0.08%

Nc1ccn([C@@H]2O[C@H](CO)[C@@H](O)C2(F)F)c(=O)n1
clearance (HPLC-UV; human, plasma; 800 mg/m^2, mean, after paricalcitol): 59.4 L/h/m²

C[C@@H](NC(=O)N1C(=O)[C@H](Cc2ccnc(N)c2)[C@H]1C(=O)O)C1CCCCC1
Vd (UPLC-MS/MS; healthy adult Chinese volunteers, plasma; continuous intravenous infusion, 0.3 mg/kg/h, day 6 of 5-day infusion, mean): 0.546 L/kg

CC[C@H]1CC[C@H](c2ccc(-c3ccc(F)c(F)c3)cc2)CC1
median fetal accumulation (rat, fetus; 5000 ng/mL in perfusate, high dose, mixture of 21 LCMs): 1.06 ng/g

C=CC(=O)NC1CCN(c2ncc3ncnc(Nc4ccc(Oc5ccc6c(c5)ncn6C)c(C)c4)c3n2)CC1
blood-to-plasma ratio (refers to: total radioactivity; healthy male human, whole blood and plasma; oral, 60 mg, 12 h, geometric mean): 0.879

COc1cc(Nc2ncc3c(n2)-c2ccc(Cl)cc2C(c2c(F)cccc2OC)=NC3)ccc1C(=O)O
patients with muscle weakness (cancer patients; oral, dose not given, all grades any attribution, with: pembrolizumab): 21%

CC(=O)O[C@H]1C(=O)[C@@]2(C)[C@H]([C@H](OC(=O)c3ccccc3)[C@]3(O)C[C@H](OC(=O)[C@H](O)[C@@H](NC(=O)c4ccccc4)c4ccccc4)C(C)=C1C3(C)C)[C@]1(OC(C)=O)CO[C@@H]1C[C@@H]2O
clearance change (human patients; intravenous, dose not given, cycle 2 day 1, mean; relative to: cycle 1 day 8): -13%

CC(F)(F)c1nc2nc(CO)cc(Nc3ccc(S(F)(F)(F)(F)F)cc3)n2n1
half-life, metabolite (LC-MS/MS; malaria patients, plasma; oral, 600 mg of parent drug): 108 h

NS(=O)(=O)c1cc(C(=O)O)c(NCc2ccco2)cc1Cl
subjects with adverse event (refers to: dizziness; healthy men; oral, 8 days, treatment-emergent, crossover trial): 0%

COc1ccc2c(C)nc(Nc3nc(C)cc(O)n3)nc2c1
thermodynamic solubility (aqueous buffer; pH 7.4): < 4.29 µM

CCN1CCN(Cc2ccc(NC(=O)c3ccc(C)c(NC(=O)c4cncc(-c5cccs5)c4)c3)cc2C(F)(F)F)CC1
mean plasma concentration (LC-MS/MS; C57BL/6 mouse, plasma; intraperitoneal, 20 mg/kg single dose, 0.5 h): 0.714 µg/mL

C[C@@H](O)[C@H](NC(=O)c1ccc(-c2ccccc2)cc1)C(=O)NO
thermodynamic solubility (aqueous buffer; pH 7.4): 302 µM (≈ 95.1 µg/mL)

N#C[C@@]1(c2ccc3c(N)ncnn23)O[C@H](CO)[C@@H](O)[C@H]1O
plasma concentration (beagle dog male, plasma; oral capsule, 6.5 mg/kg, 6 h): 3.43 µM

A few entries again:
N#Cc1ccc2c(c1)[C@H]1CCCN(C(=O)c3ccc4[nH]cnc4c3)[C@H]1C2
mean ACTH level (human; 20 mg, end of trial): 5.8 pmol/L

O=C(O)CCC(=O)O.[2H]C([2H])([2H])Oc1cc(C)c2[nH]ccc2c1CN1CC[C@@H](C2CC2)C[C@H]1c1ccc(C(=O)O)cc1
subjects with dental ulcer TEAE (multiple ascending dose; healthy Chinese subjects; 100 mg twice daily): 12.5%

C[C@H]1C[C@@H](N2C(=N)N[C@](C)(c3cccc(NC(=O)c4cccc(C#N)c4)c3Cl)CC2=O)CCO1
molar extinction coefficient (absorbance maximum 289 nm): 3275 ± 24.6 L/mol/cm
